Experimental data gathered from unrelated publications.
Parts stem from different laboratories: compare values within a part only.

Set 1
Target: RING finger protein unkempt homolog, zinc fingers 1-6, GST-SBP tag (UNK, Homo sapiens, UniProt Q9C0B0, residues 30-357)
Sequence of UniProt Q9C0B0 (30-357, looked up): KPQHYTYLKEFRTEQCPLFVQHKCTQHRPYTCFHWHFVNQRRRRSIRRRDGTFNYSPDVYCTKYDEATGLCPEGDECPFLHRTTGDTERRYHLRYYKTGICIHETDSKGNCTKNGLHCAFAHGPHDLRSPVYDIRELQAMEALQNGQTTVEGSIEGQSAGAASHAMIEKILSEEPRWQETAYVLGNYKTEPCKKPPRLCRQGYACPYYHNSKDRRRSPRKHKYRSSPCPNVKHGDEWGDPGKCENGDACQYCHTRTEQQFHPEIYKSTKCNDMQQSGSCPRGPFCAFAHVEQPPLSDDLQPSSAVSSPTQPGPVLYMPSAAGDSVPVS
Technique: RNA Bind-n-Seq
Form: RNA
Matrix: in vitro
Concentration: not given
Notes: RNA with constant flanks, human-mouse chimeric sites, ends assumed
Relative to: input RNA pool
Reading: higher = stronger binding
Shared flanks, not repeated: GGGAGUUCUACAGUCCGACGAUC … CAACAGAGGAUUGAGCAUCA
Strand	bound/input enrichment
AUUGUUGAAGCGAAUCCACUUUUAGAAGCCUUUGGAAAUGCAAAGACUGUUCGCAACAAUAAUAGCAGUCGAUUUGGAAAAUUUGUAGAAAUUCAUUUCAAUGAAAAGAGCUCAGUUGUU	0.166 ratio
CCAAUUGUGGAGCAGUACUUGAAGACAAAGAAAAAUUCUAAUAAUUUAAUCAUCAAGUACAUUAGCUGCCGCCUGCUGACACUCAUCGUUAUACUGUUAGCGUGUAUCUACUUGAGCUAU	0.315 ratio
AGAAAGCAAAACUUGGAACGAUUUAAGAAAGGAGAUGUAAGAUUCUUGAUUUGCACAGAUGUAGCUGCUAGAGGGAUUGAUAUCCAUGGCGUUCCUUAUGUUAUAAACGUCACCCUGCCU	0.299 ratio
AAAGAGAAACUAAAGCAACUAAUAGAGAAGAGGAUUGGCAAAGAGAAUUUCAUAGAGGAAACUAGGAUUAUUAGCAAAACAUGAGUUUAUUCCAGAGCGUCUCAGAAACCCCAGCCAAAC	8.55 ratio
AGAUUCCCCCUCCUGAGGCCUUCUCCAAAGUUGGAGUCUCUUACAGAUGCCUCAUCCCCUGUUAGUAUUUUAGUUUGGACCACCCAGCCUUGGACAAUUCCCGCCAACCAGGCAAUUUGC	3.73 ratio
CGCUGGCGUUGAACUGUGGACUCUGAUGGCCUCCAUCAAGGUAUUAUGUGUGCCUUCUCUUAGUCCCUGUUUUCGGGAUGUUAUGAAUCUCAGUACUGUGGUUUGAAAGCACCAGCUUUG	0.153 ratio
AGAUUCCCCCUCCUGAGACCUCCUCCGAAAUUGGCAUCUCUUACAGAUGCCUCAUCCCCUGUUAGCGUUUUAGUUUGGACCACCCAGCCUUGGACAAUUCCCGCCAACCAGGCAAUUUGC	1.64 ratio
UGGCGCCUGCGCUCCCCGUUUUUAAAUUUAAGUGUAUUUUUAUAAGACAUGUGUAUUUACAAUUGAGCUUUUGUUACAUAAUGCUGAAAUGCUACUGGAGAUUAUGAAAAAUGUUUCAAU	0.409 ratio
AGAUUCCCCCUCCUGAGACCUCCUCCGAAGUUGGAGUCUCUUAUAGAUGCCUCAUCCCCUGUUAGUAUUUUAGUUUGGACCACCCAGCCUUGGACAAUUCCCGCCAACCAGGCAAUUUGC	3.01 ratio
GCAGGAUCUUCUAAGUACCAGUGGGACAUUAUGAAAUCCCUUGGCCUCUCUGAUGACGACAUAGUGAAAUUUUCUGAAGCAGAGCACUGGCUUGAUUAUUUCCCACCACUGGCCGUUCAG	0.22 ratio
CAGUCCCCGUGUCCCAGGGGACAAUGUUGUGAACAAAAACUCAAAGCGGACCCUCUAUUGUAGUUCUUGAUUCUCGAAAUGUGCUAUUGUUUUUAAACUUUUUUUUUUUUUUUUUAAAGA	1.31 ratio

Set 2
Target: RNA binding protein fox-1 homolog 2, RRM domain, GST-SBP tag (RBFOX2, Homo sapiens, UniProt O43251-10, residues 100-194)
Technique: RNA Bind-n-Seq
Form: RNA
Matrix: in vitro
Concentration: 365 nM
Notes: natural RNA segment, single round, ends assumed
Relative to: no-protein control
Reading: higher = stronger binding
Shared flanks, not repeated: GGGAGUUCUACAGUCCGACGAUC … UGGAAUUCUCGGGUGCCAA
Target sequence (chain): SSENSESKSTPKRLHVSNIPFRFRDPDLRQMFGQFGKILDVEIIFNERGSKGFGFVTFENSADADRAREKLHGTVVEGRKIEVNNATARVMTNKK
Strand	RBNS enrichment (R)
GGAGCUAGAACCAGGGAGGUCCUGAGUGAGGAAGGCAUGACCUCUGGGCUCUCUAGGUGGCCCUGGUCUUGCCCCAUCCAUCCCACCUGCCACUACCUUGGGUGUCCUUA	0.286
CCAGCUAUUUGGCAGGCUGAGGCAUGAGAAUCGCUUGAACCCAGGAGGUGGAGGUUACAGUGAGCUGAGAGUGCCCCACUGCACUCCAGCCUGGGUGACAGAGCGAGACU	0.347
UGUCAGCAUCUGUUCUAUCAGUAAGAAAGAGCAGGCAGGACACAUUAAAGGUUCUGUGUCAGCUAUUUUCAUUGCCAAUGAAAUGUAUUCAGUAUUGUAGAUACUAAACC	0.194
UAUGUUGCCAGUGGUUUCACACAAAUUCCCUUGUAUUUAUUUGUUGAUUAAAUCAAGUGAGAAAGGUAAAGCAGUGUGUCUUCAGUUAUUUAAGGAACCUUAUGCUGUGU	0.428
UGCAGGGCCUGGCUUGUACUUGGUGUGUGCAAGGCCCAAUGGCAGCCUGCAUACCCAGCCUACUCUUGGGCCCACUUGGACGCGCUGGCAGGAGGCCUGGGUCUCACCAG	0.872
UAUAUCAAAUUGUGCACUUUAAAUAUGUGCAAUUUGUUGUACAUCAGUGAUACCUCAAUAAAUCUGUAAAAAAAGAAAAAUUAAACCUUGUAUUAAAAUAAAUAGCAAAC	0.894
GAGCUCGCGGGUGCGCACGGGCCGCAGCAUCCGUGGCUUCUGCCUCCCCCCGCACUGCAGCCGCGGGGAGCGCCGCGCCAUCGAGAAGCUCGCGGUGGAAGCCCUGUCCA	1.69
UUAGUGUUUUAAAUUGGAACAUAUCUUGCCUCAUGAAGCUUUAAAUUAUAAUUUUCAGUUUCUCCCCAUGAAGCGCUCUCGUCUGACAUUUGUUUGGAAUCGUGCCACUG	0.376
GAGCUGUUUUUGUAAAAUGACUGCUGACAGCAAGUUCUUGCUGCUCUCCAAUCUCAUCAGACAGUAGAAUGUAGGGAAAAACUUUUGCCCGACUGAUUUUUAAAAAGGAA	0.494
UGUGGGUCUCUCCAGUAAGAAAGAUGCUAAAAGUUUUGUGCACUUUUUGUGUGUGUAAUGCAAAUUAGUUAAAACAAAUAGUUUUGGAGAAAGUUAAAACUAGCUUUAGA	0.622
AAACUACUGUGCCUUAACGUGUUUCUUAAACUUUUGUAGUAAAUGAACAUUUGAAAUCCAUUUUGAUAAACCUGCUGUUAAUGUUUUUUCCCCCCUUGUGAAUGUUUUCU	4.1
GCUGGAACUUUGUGGUCCUUGCCGAGUUUUGUAGGGGUCACUGUCACAUGCUUGUGCCCUGGAAGCCCCAAGGCUCUUCCUCCAGCUGGCUCCCUUGUCUCCAGGGCUUU	0.438

Set 3
Target: Ras GTPase-activating protein-binding protein 1, full length (G3BP1, Homo sapiens, UniProt Q13283)
Sequence of UniProt Q13283 (whole entry, looked up): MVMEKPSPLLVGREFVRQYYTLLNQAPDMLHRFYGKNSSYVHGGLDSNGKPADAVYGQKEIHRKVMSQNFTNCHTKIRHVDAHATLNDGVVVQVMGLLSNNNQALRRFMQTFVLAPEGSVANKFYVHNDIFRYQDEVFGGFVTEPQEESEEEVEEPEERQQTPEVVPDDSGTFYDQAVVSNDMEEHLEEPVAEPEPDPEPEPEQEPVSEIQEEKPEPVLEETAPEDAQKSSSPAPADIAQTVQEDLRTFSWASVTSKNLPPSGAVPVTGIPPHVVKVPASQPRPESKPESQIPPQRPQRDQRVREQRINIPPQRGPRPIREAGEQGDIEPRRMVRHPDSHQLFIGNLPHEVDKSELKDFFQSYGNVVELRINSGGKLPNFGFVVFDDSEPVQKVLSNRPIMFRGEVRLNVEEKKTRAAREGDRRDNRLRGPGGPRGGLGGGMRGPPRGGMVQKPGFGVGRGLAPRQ
Technique: RNA Bind-n-Seq
Form: RNA
Matrix: in vitro
Concentration: 200 nM
Notes: whole 134-nt RNA, ends assumed
Together with: 150 mM LiCl
Relative to: input library
Reading: higher = stronger binding
Library: 7-deaza-guanosine replaces G
Shared flanks, not repeated: GGGAGUUCUACAGUCCGACGAUC … UGGAAUUCUCGGGUGUCAAGG
Strand	log2 enrichment
UAACUUUAGAGGAGGAUCUGAUGGAUAUGGCAGUGGACGUGGAUUUAGGGAUGGCUAUAAUGGGUAUGGAGGAGGACCUGGAGGUGGCAA	-0.276
CACAGACAACACGCACCCACACAGACACAGAGGGAAGAGGUUGGGAUGGGGACAGGGUGCACAGCAGGGCGGGGUAGGACCCCAGCCCCU	-1.01
CCUCAAGUCCUGUGCUACACAUCGUAUGUACCGAAUCGGCCGGCCGGGCCGGAAAGUAUUAUGUUACGCCGUUCGGAUCUGCACUUCCAG	0.428
ACCAUGCAGGUGGGCAUCUUUGGGAAGUGGGGCAAGGGGGGGAUAGGGAGGGGGGUAGCACUUUGGGAACAGGUGGUCCCAGGUCGUUUC	0.202
UCAAGUCCUGUGCUACACAUCGUAUGUACCGAAUCGGAAAGGAAAGGGGAAAGGAAAGUAUUAUGUUACGCCGUUCGGAUCUGCACUUCC	-0.327
UGGGAGGUGGAUUUUGUUUAUUUUUUUAGCUCAUUUCCAGGGGUGGGAAUUUUUUUUUAAUAUGUGUCAUGAAUAAAGUUGUUUUUGAAC	-0.578
GCAGGAAGUAAAAACAAAUGGAAAUGCUUCGGAUAGUGGCAGGGGUGGGGGUUGCUAAUGAAAGGGUGGGAUGGGAGUGGGUAAAGAGUU	-0.138
GUCCUGUGCUACACAUCGUAUGUACCGAAUCGGGGAAAAAAGGAAAAAAGGAAAAAAGGAAAGUAUUAUGUUACGCCGUUCGGAUCUGCA	-0.453
UGGCCCUGGUGGCAUGCGGGGAGGAAGAGGUGGCCUCAUGGAUCGUGGUGGUCCCGGUGGAAUGAUCAGAGGUGGCCGUGGUGGAGACAG	0.128
UUACAGAUGUAGAGCUAAAACGACUGAAGGAUGCUUUCAAGAGGACCUGUGGACUCUCAUAUUACAUGGGCCAGCACUGCUUCAUCCGGG	1.14
UCCUCAAGUCCUGUGCUACACAUCGUAUGUACCGAAUCGGUUUGGAGGUGGAAAGUAUUAUGUUACGCCGUUCGGAUCUGCACUUCCAGC	-0.496

Set 4
Target: Phosphate system positive regulatory protein PHO4, full length, GST-tagged (PHO4, Saccharomyces cerevisiae, UniProt P07270, residues 1-312)
Technique: competition protein-binding microarray
Form: double-stranded DNA, one strand shown
Matrix: in vitro
Concentration: 2 µM
Notes: whole 60-bp probe, lowest competitor level
Together with: Cbf1 competitor, 0.05 µM
Reading: higher = stronger binding
Shared flanks, not repeated: … GTCTTGATTCGCTTGACGCTGCTG
Residues (chain): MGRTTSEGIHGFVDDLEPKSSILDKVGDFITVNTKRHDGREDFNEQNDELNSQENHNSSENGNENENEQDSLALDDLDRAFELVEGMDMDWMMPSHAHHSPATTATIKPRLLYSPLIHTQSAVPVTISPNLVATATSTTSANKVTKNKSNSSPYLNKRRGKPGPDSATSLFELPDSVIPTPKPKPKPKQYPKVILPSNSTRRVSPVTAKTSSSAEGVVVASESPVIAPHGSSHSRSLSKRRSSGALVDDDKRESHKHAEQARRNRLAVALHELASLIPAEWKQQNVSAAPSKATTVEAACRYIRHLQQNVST
Strand	fluorescence intensity
AAAGCGGTAATTTGAACAGTGGGTGCAGATATCTAT	3810 a.u.
AAATTACTAAGTTGACGAGTGGGTGACGCCGTATGA	4130 a.u.
TTCTGCAGATAGTCTCTCGTGACTCGAATCTCGGAA	4070 a.u.
TTAAAACACTAATGAAACGTGTTGAAGGGGCCCGAC	12200 a.u.
GTCTTGTCTCATTGTCACAAGACTTTCCCCACTTCA	4280 a.u.
GTCCGATATGCCCGGAACGTGCTTTCCATTGGTGCA	14100 a.u.
TGCGCAACAACTTTTCACGTGTCGTTATGTCTAGAA	14500 a.u.
TCCAGGTTGCCCTGCAAGGTGACAGGGTTCTTGTTT	3600 a.u.
TAAGGTCATTAAGAACCCGTGACTCGTATCACCAAA	5740 a.u.
TTTCCTCTCCTTCTCTGCGTGCTTTCAAATCTAATT	8630 a.u.
CCGACGAAACCGTTCCACGTGTGTTCGACTTGAAAA	17500 a.u.
GTCTTGTCTCATTGATGTGTGGGTGTCCCCACTTCA	4960 a.u.
GTCTTGTCTCATTGGCTCGTGGGTGTCCCCACTTCA	11600 a.u.
GGCCAAGTTGGTTAAGGCGTGCGATTGTTAATCGCA	7820 a.u.
CGGGGTTAAGTTTGTCACCCGACTTGCTTGCAGCAG	3240 a.u.
TGCGCAACAACTTGGGTGGTGGGTGTATGTCTAGAA	4870 a.u.
AAATTACTAAGTTTTCACGTGCGTTACCCCGTATGA	16900 a.u.

Set 5
Target: Sal-like protein 4, full length isoform B (SALL4, Homo sapiens, UniProt Q9UJQ4-2, residues 1-616)
Technique: universal PBM
Form: double-stranded DNA, one strand shown
Matrix: in vitro
Concentration: not given
Notes: 8-mer, flanks averaged, mean of replicates
Reading: higher = stronger binding
Strand	E-score
TCTAAAGA	0.0767
GATCGACA	0.00995
CGTTAACC	-0.0687
AGAATCTG	-0.00606
GTATCGCA	-0.0774
AACCTGTA	0.164
AGTTACAG	0.0315
AGACCTAT	0.198
AATTGAAC	0.138
ACTCCTCA	-0.0641
CCTTCTAG	-0.0746
AGCGCCCT	-0.301
AGTCCTAT	0.164
GCAAGAGC	-0.161
ACTGTTAC	0.0852
AGTGCCCC	-0.128

Some of these lines once more (set 1):
Strand	bound/input enrichment
CCAAUUGUGGAGCAGUACUUGAAGACAAAGAAAAAUUCUAAUAAUUUAAUCAUCAAGUACAUUAGCUGCCGCCUGCUGACACUCAUCGUUAUACUGUUAGCGUGUAUCUACUUGAGCUAU	0.315 ratio
AGAUUCCCCCUCCUGAGACCUCCUCCGAAGUUGGAGUCUCUUAUAGAUGCCUCAUCCCCUGUUAGUAUUUUAGUUUGGACCACCCAGCCUUGGACAAUUCCCGCCAACCAGGCAAUUUGC	3.01 ratio
UGGCGCCUGCGCUCCCCGUUUUUAAAUUUAAGUGUAUUUUUAUAAGACAUGUGUAUUUACAAUUGAGCUUUUGUUACAUAAUGCUGAAAUGCUACUGGAGAUUAUGAAAAAUGUUUCAAU	0.409 ratio
AGAUUCCCCCUCCUGAGACCUCCUCCGAAAUUGGCAUCUCUUACAGAUGCCUCAUCCCCUGUUAGCGUUUUAGUUUGGACCACCCAGCCUUGGACAAUUCCCGCCAACCAGGCAAUUUGC	1.64 ratio
AGAAAGCAAAACUUGGAACGAUUUAAGAAAGGAGAUGUAAGAUUCUUGAUUUGCACAGAUGUAGCUGCUAGAGGGAUUGAUAUCCAUGGCGUUCCUUAUGUUAUAAACGUCACCCUGCCU	0.299 ratio
AAAGAGAAACUAAAGCAACUAAUAGAGAAGAGGAUUGGCAAAGAGAAUUUCAUAGAGGAAACUAGGAUUAUUAGCAAAACAUGAGUUUAUUCCAGAGCGUCUCAGAAACCCCAGCCAAAC	8.55 ratio
